Experimental data collected from several papers.
± marks the error that the study gave.
PTPN1: Tyrosine-protein phosphatase non-receptor type 1 (PTPN1, Homo sapiens, UniProt P18031)
CASP3: Caspase-3 (CASP3, Homo sapiens, UniProt P42574)
FURIN: Furin (FURIN, Homo sapiens, UniProt P09958)
Receptor-type tyrosine-protein phosphatase alpha residues 224-802: Receptor-type tyrosine-protein phosphatase alpha, residues 224-802 (Homo sapiens, UniProt P18433)

By UniProt entry, the sequences of proteins in these tests, tags left out. Residues count along the entry.
UniProt P18031, 1-321 limits assumed: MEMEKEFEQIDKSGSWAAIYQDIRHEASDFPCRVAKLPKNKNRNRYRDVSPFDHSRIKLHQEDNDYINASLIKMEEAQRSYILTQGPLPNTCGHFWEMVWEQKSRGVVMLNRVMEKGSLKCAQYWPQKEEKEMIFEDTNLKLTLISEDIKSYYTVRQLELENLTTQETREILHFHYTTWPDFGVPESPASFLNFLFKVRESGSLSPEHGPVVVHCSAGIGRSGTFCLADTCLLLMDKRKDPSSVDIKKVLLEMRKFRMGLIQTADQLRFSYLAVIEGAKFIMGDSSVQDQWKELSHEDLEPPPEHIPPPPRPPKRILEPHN
UniProt P18031, whole entry: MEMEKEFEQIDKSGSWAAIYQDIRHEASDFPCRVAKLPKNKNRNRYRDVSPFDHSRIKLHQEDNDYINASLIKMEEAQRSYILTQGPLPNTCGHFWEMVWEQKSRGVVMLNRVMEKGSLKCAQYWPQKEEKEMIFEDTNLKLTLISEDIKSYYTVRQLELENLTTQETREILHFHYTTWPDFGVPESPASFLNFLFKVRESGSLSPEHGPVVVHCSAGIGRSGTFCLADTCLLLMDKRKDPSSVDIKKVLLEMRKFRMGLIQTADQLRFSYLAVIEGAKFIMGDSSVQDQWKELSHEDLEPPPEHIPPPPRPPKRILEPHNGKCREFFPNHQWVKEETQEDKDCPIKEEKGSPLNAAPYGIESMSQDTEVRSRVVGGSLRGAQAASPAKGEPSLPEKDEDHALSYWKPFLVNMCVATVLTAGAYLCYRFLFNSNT
UniProt P42574, whole entry, looked up: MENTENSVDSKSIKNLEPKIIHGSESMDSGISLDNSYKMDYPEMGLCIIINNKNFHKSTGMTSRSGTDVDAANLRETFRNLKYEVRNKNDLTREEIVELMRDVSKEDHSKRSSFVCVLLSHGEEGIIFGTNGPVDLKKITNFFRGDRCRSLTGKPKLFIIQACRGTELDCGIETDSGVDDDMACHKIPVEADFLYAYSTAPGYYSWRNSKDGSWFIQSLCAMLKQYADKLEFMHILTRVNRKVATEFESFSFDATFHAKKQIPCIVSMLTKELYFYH
UniProt P09958, whole entry, looked up: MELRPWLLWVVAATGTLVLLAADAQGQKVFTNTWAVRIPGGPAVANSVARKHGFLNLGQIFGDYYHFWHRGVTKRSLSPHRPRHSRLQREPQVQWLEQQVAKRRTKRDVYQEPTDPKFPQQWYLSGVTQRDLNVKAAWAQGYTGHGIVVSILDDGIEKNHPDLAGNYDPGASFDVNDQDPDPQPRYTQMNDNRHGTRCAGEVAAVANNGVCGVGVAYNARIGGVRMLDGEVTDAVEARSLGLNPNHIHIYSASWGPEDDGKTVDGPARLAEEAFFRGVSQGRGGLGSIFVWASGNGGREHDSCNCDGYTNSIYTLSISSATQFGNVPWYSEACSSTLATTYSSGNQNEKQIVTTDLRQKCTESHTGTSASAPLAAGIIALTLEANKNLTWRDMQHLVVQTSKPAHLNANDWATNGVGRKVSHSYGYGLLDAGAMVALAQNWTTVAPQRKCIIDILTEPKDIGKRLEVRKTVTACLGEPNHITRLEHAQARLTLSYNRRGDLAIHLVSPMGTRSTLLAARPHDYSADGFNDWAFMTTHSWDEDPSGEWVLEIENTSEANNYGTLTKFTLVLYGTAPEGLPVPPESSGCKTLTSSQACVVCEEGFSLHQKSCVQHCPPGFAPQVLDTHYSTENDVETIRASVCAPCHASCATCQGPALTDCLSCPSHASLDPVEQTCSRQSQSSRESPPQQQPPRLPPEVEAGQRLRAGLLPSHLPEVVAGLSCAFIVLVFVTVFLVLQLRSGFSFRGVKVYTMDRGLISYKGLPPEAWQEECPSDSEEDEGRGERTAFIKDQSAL
UniProt P18433, 224-802 limits assumed: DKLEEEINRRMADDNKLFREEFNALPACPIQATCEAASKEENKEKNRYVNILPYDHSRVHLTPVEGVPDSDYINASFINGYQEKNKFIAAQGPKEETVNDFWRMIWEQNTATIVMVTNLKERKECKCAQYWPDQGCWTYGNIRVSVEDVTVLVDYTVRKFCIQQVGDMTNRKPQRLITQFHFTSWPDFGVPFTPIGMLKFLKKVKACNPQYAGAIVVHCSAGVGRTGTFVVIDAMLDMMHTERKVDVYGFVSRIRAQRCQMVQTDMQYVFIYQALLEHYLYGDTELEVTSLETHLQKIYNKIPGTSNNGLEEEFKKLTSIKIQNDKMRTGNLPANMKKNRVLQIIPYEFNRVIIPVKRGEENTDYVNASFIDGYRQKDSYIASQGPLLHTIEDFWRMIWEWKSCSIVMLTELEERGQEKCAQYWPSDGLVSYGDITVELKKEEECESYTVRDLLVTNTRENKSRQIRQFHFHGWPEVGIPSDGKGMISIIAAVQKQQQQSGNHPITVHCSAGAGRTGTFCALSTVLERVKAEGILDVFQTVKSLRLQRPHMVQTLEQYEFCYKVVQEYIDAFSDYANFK
UniProt P48025, whole entry: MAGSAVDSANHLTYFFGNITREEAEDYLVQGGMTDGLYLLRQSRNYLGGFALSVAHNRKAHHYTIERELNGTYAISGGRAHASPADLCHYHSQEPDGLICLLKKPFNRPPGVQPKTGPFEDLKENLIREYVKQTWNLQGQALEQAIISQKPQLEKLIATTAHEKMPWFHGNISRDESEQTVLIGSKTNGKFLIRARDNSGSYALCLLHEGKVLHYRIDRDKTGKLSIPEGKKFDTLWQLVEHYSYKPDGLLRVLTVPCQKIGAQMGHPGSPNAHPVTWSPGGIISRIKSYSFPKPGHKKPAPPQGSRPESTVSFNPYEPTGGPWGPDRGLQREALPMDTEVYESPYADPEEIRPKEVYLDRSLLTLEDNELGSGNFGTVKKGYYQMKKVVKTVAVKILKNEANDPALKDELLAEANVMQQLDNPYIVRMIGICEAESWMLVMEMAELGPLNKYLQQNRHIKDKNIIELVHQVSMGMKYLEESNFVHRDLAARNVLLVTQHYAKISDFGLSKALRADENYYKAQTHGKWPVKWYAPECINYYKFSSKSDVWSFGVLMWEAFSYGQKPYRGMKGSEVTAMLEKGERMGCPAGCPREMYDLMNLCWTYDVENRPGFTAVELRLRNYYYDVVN
UniProt P17706, whole entry: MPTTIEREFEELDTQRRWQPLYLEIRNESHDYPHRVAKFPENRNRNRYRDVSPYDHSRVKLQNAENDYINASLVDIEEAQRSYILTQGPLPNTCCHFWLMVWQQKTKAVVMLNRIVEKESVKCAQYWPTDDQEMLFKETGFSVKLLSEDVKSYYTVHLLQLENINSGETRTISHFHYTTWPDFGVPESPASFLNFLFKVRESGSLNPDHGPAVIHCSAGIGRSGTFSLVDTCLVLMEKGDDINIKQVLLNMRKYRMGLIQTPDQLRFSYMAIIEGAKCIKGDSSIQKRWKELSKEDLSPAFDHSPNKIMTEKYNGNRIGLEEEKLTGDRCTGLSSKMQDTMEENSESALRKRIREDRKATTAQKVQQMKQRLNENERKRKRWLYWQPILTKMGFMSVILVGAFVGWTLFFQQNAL
UniProt P43144, 26-479 limits assumed: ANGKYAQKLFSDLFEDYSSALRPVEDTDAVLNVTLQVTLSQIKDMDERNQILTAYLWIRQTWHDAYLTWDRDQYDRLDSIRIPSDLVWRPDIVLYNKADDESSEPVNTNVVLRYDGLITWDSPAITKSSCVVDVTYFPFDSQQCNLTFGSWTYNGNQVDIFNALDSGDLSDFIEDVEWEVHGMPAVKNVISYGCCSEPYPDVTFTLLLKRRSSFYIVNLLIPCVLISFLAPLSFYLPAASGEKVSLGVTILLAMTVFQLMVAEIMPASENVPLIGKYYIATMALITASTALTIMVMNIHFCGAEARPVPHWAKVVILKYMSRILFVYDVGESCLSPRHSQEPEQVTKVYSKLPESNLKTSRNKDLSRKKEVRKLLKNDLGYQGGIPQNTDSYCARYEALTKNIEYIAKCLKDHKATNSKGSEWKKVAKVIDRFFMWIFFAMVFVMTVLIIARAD
UniProt Q9JLB5, 25-447 limits assumed: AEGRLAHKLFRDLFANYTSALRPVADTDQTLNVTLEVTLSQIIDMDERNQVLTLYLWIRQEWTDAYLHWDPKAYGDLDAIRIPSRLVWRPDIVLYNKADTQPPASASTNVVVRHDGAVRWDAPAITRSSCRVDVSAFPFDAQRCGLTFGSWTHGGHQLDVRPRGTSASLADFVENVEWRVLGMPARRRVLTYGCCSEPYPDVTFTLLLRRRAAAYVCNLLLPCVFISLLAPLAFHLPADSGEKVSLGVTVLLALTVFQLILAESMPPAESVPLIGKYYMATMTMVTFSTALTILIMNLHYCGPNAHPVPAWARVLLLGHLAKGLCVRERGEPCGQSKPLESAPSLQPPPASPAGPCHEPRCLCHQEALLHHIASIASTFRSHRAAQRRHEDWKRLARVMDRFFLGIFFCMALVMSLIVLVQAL
UniProt F1M9V7, 1-920: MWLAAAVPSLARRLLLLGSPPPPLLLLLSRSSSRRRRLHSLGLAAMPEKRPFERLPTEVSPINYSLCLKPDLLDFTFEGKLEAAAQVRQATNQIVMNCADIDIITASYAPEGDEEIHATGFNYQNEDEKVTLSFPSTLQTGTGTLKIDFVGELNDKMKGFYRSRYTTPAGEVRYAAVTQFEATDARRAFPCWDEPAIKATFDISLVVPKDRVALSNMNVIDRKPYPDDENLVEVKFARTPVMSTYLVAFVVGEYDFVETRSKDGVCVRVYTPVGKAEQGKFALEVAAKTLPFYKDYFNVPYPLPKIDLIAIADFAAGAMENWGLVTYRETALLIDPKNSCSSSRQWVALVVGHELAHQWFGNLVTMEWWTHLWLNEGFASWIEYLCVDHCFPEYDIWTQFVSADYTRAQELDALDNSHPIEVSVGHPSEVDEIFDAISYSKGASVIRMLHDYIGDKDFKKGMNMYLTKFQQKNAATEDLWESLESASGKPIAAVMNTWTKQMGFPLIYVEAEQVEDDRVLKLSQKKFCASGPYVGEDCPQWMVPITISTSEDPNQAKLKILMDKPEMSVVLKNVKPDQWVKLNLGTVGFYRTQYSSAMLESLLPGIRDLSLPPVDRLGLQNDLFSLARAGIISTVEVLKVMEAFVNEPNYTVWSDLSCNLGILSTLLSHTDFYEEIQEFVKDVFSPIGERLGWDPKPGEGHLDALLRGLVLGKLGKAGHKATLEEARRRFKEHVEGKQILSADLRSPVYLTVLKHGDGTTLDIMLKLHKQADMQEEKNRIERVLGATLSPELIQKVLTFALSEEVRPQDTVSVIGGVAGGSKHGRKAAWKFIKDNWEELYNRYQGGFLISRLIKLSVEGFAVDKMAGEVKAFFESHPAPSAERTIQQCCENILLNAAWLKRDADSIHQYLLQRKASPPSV

With `CC(=O)N[C@@H](CCC(=O)O)C(=O)N[C@@H](CCC(=O)O)C(=O)N[C@@H](CC(=O)O)C(=O)N[C@@H](CC(N)=O)C(=O)N[C@@H](C)C(=O)N[C@@H](Cc1c[nH]c2ccccc12)C(=O)N[C@@H](Cc1ccc(OP(=O)(O)O)cc1)C(=O)N[C@@H](C)C(=O)N[C@@H](C)C(N)=O` the kcat was 27 ± 1 s⁻¹ (PTPN1; substrate; pH 7.4, catalytic domain).
`CC[C@H](C)[C@H](NC(=O)[C@@H](NC(=O)[C@H](CC(=O)O)NC(=O)CNC(=O)[C@@H](NC(=O)[C@H](CC(=O)O)NC(=O)[C@H](CCSC)NC(=O)[C@H](CCC(=O)O)NC(=O)[C@H](CC(=O)O)NC(=O)[C@@H](NC(=O)CCNC(=O)Cc1cc(=O)oc2cc(N)ccc12)C(C)C)[C@@H](C)OP(=O)(O)O)[C@@H](C)O)C(=O)N[C@@H](CCCCNc1ccc([N+](=O)[O-])cc1[N+](=O)[O-])C(N)=O` gave a kcat/Km decrease of over 530 fold (CASP3; substrate; baseline: unphosphorylated substrate over phosphorylated).
`C[C@@H](O)[C@H](NC(=O)[C@H](CO)NC(=O)[C@H](CCCNC(=N)N)NC(=O)[C@H](CCCCN)NC(=O)[C@@H](NC(=O)[C@H](CCCNC(=N)N)NC(=O)[C@H](CC(N)=O)NC(=O)[C@H](Cc1c[nH]cn1)NC(=O)c1ccccc1N)[C@@H](C)O)C(=O)N[C@@H](CC(=O)O)C(=O)NCC(=O)N[C@@H](CCC(N)=O)C(=O)NCCNc1ccc([N+](=O)[O-])cc1[N+](=O)[O-]` has a kcat of 7.6 s⁻¹ (FURIN; substrate; pH 7).
For `N#Cc1c(-c2ccc(Cl)cc2Cl)n(-c2nc(-c3ccc(Cl)cc3)c3c(NC(=O)c4ccccc4)nnc-3[nH]2)[nH]c1=O`, the CC50 was over 100 µM (UACC-257; SRB).
`C[C@H](NC(=O)[C@H](CCC(N)=O)NC(=O)[C@H](CCCNC(=N)N)NC(=O)[C@H](CCCCN)NC(=O)[C@H](CCC(=O)O)NC(=O)[C@H](CCCNC(=N)N)NC(=O)[C@H](CCCCN)NC(=O)[C@H](Cc1c[nH]cn1)NC(=O)c1ccccc1N)C(=O)N[C@@H](CCCCN)C(=O)N[C@@H](Cc1c[nH]cn1)C(=O)N[C@@H](CCC(N)=O)C(=O)NCCNc1ccc([N+](=O)[O-])cc1[N+](=O)[O-]` has a kcat of 3.6 s⁻¹ (FURIN; substrate; pH 7).
The CC50 of `CCOC(=O)c1c(-c2ccc(Cl)cc2Cl)n(-c2nc(-c3ccc(Cl)cc3)c3c(NC(=O)c4ccccc4)nnc-3[nH]2)[nH]c1=O` is reported as over 100 µM (PC-3; SRB).
The kcat of `CC(=O)N[C@@H](C)C(=O)N[C@@H](C)C(=O)N[C@@H](C)C(=O)N[C@@H](C)C(=O)N[C@@H](C)C(=O)N[C@@H](Cc1ccc(OP(=O)(O)O)cc1)C(=O)N[C@@H](CCCNC(=N)N)C(=O)N[C@@H](Cc1c[nH]cn1)C(=O)N[C@@H](CCCNC(=N)N)C(=O)N[C@@H](CCCNC(=N)N)C(N)=O` is reported as 30 ± 2 s⁻¹ (Receptor-type tyrosine-protein phosphatase alpha residues 224-802; phosphatase activity, substrate; pH 7.4, added: phosphotyrosine peptide).
`CC[C@H](C)[C@H](NC(=O)CNC(=O)[C@H](CCCNC(=N)N)NC(=O)[C@@H]1CCCN1C(=O)[C@H](CC(=O)O)NC(C)=O)C(=O)N[C@@H](Cc1ccc(OP(=O)(O)O)cc1)C(=O)N[C@@H](CC(=O)O)C(=O)N[C@@H](CCC(N)=O)C(=O)N[C@H](C(=O)N[C@@H](C)C(=O)NCC(N)=O)C(C)C` has a kcat of 27 ± 1 s⁻¹ (PTPN1; substrate; pH 7.4, catalytic domain).
With `CC[C@H](C)[C@H](NC(=O)[C@H](CO)NC(=O)[C@H](CCCNC(=N)N)NC(=O)[C@H](CCCNC(=N)N)NC(=O)[C@H](Cc1ccccc1)NC(=O)[C@H](CCCNC(=N)N)NC(=O)[C@H](CCCNC(=N)N)NC(=O)[C@@H](NC(=O)c1ccccc1N)[C@@H](C)O)C(=O)N[C@H](C(=O)N[C@@H](CCC(=O)O)C(=O)N[C@@H](CCC(N)=O)C(=O)NCCNc1ccc([N+](=O)[O-])cc1[N+](=O)[O-])[C@@H](C)O` the kcat was 19.5 s⁻¹ (FURIN; substrate; pH 7).
For `CCCC[C@H](NC(=O)[C@H](CCC(N)=O)NC(=O)[C@@H](NC(=O)[C@H](CCC(=O)O)NC(=O)[C@H](CC(=O)O)NC(=O)[C@H](Cc1ccc(OP(=O)(O)O)cc1)NC(=O)[C@H](CC(C)C)NC(=O)[C@@H]1CCCN1C(=O)CNC(=O)[C@H](Cc1c[nH]c2ccccc12)NC(=O)[C@H](C)NC(C)=O)C(C)C)C(N)=O`, the kcat was 31 ± 1 s⁻¹ (PTPN1; substrate; pH 7.4, catalytic domain).
The kcat of `CC[C@H](C)[C@H](NC(=O)[C@H](CCCNC(=N)N)NC(=O)[C@H](CCCCN)NC(=O)[C@H](CCCNC(=N)N)NC(=O)[C@H](C)NC(C)=O)C(=O)N[C@@H](Cc1ccc(OP(=O)(O)O)cc1)C(=O)N[C@@H](C)C(=O)N[C@@H](C)C(N)=O` is reported as 39 ± 1 s⁻¹ (Receptor-type tyrosine-protein phosphatase alpha residues 224-802; phosphatase activity, substrate; pH 7.4, added: phosphotyrosine peptide).
For `C[C@H](NC(=O)[C@H](C)NC(=O)[C@H](Cc1ccc(OP(=O)(O)O)cc1)NC(=O)[C@H](Cc1ccccc1)NC(=O)[C@H](CCC(=O)O)NC(=O)[C@H](Cc1cc(F)c(O)c(F)c1)NC(=O)[C@H](CCC(=O)O)NC(=O)[C@@H](N)CCCNC(=N)N)C(N)=O`, the kcat was 44 ± 2 s⁻¹ (PTPN1; enzyme activity, substrate; pH 7.4).
With `NCC(=O)NCC(=O)N[C@@H](CC(=O)O)C(=O)N[C@@H](CCC(=O)O)C(=O)N[C@@H](CCC(=O)O)C(=O)N[C@@H](CC(=O)O)C(=O)N[C@@H](Cc1ccc(O)cc1)C(=O)N[C@@H](CCC(=O)O)C(=O)N[C@@H](CCC(=O)O)C(=O)N1CCC[C@H]1C(=O)N[C@@H](CC(=O)O)C(=O)N[C@@H](CCC(=O)O)C(=O)N1CCC[C@H]1C(=O)NCC(=O)NCC(=O)N[C@@H](CCCCNC(=O)CCCC[C@@H]1SC[C@@H]2NC(=O)N[C@@H]21)C(=O)NCC(=O)NCC(=O)O` the kcat was 3.6 s⁻¹ (Tyrosine-protein kinase SYK (Mus musculus, UniProt P48025); kinase activity, ELISA fluorescence; pH 7.2, MnCl2 5 mM, added: ATP 500 µM).
With `CC(C)C[C@H](NC(=O)[C@H](CC(N)=O)NC(=O)[C@@H](N)CC(=O)O)C(=O)N[C@@H](Cc1ccc(O)cc1)C(=O)N[C@@H](Cc1ccc(OP(=O)(O)O)cc1)C(=O)N[C@@H](Cc1c[nH]c2ccccc12)C(=O)N[C@@H](CC(=O)O)C(N)=O` the kcat was 32 ± 1 s⁻¹ (PTPN1; enzyme activity, substrate; pH 7.4).
`CC(C)[C@H](NC(=O)[C@H](CO)NC(=O)[C@H](CC(=O)O)NC(=O)[C@H](CCC(N)=O)NC(=O)CCNC(=O)Cc1cc(=O)oc2cc(N)ccc12)C(=O)N[C@@H](CC(=O)O)C(=O)N[C@@H](Cc1ccccc1)C(=O)N[C@@H](COP(=O)(O)O)C(=O)N[C@@H](CC(N)=O)C(=O)N[C@@H](Cc1c[nH]cn1)C(=O)N[C@@H](CC(=O)O)C(=O)N[C@@H](CCCCNc1ccc([N+](=O)[O-])cc1[N+](=O)[O-])C(N)=O` gave a kcat/Km decrease of about 58 (CASP3; substrate; unit not given; baseline: unphosphorylated substrate over phosphorylated).
For `CCCC[C@H](NC(=O)[C@H](Cc1ccccc1)NC(C)=O)C(=O)NCC(=O)N[C@@H](C)C(=O)N[C@@H](Cc1cc(=O)oc2cc(OP(=O)(O)O)ccc12)C(=O)N[C@@H](CCC(N)=O)C(=O)N[C@@H](CC(C)C)C(=O)N[C@@H](CCC(=O)O)C(=O)N[C@@H](CCC(=O)O)C(N)=O`, the kcat was 160 ± 30 s⁻¹ (Tyrosine-protein phosphatase non-receptor type 2 (PTPN2, Homo sapiens, UniProt P17706); peptide hydrolysis, substrate).
With `CC(C)C[C@H](NC(=O)[C@H](CCC(=O)O)NC(=O)[C@H](CCCNC(=N)N)NC(=O)[C@H](CCCCN)NC(=O)[C@H](CCCNC(=N)N)NC(=O)[C@H](CCCNC(=N)N)NC(=O)[C@H](CCCCN)NC(=O)[C@H](CCCNC(=N)N)NC(=O)c1ccccc1N)C(=O)N[C@@H](CCC(=O)O)C(=O)N[C@H](C(=O)N[C@@H](CCC(N)=O)C(=O)NCCNc1ccc([N+](=O)[O-])cc1[N+](=O)[O-])[C@@H](C)O` the kcat was 3 s⁻¹ (FURIN; substrate; pH 7).
`CC[C@H](C)[C@H](NC(=O)[C@H](CCCNC(=N)N)NC(=O)[C@H](CCCNC(=N)N)NC(C)=O)C(=O)N[C@@H](CO)C(=O)N[C@H](C(=O)N[C@@H](Cc1ccc(OP(=O)(O)O)cc1)C(=O)N[C@@H](C)C(=O)N[C@@H](C)C(N)=O)[C@@H](C)O` gave a kcat of 49 ± 3 s⁻¹ (Receptor-type tyrosine-protein phosphatase alpha residues 224-802; phosphatase activity, substrate; pH 7.4, added: phosphotyrosine peptide).
`CC(=O)N[C@@H](Cc1ccc(O)cc1)C(=O)N[C@@H](CC(=O)O)C(=O)N[C@@H](CCC(=O)O)C(=O)N[C@@H](CC(=O)O)C(=O)N[C@@H](Cc1ccccc1)C(=O)N[C@@H](Cc1ccc(OP(=O)(O)O)cc1)C(=O)N[C@@H](CC(=O)O)C(=O)N[C@@H](Cc1ccc(O)cc1)C(=O)N[C@@H](CCC(=O)O)C(=O)N[C@@H](Cc1ccccc1)C(N)=O` has a kcat of 21 ± 0.5 s⁻¹ (PTPN1; substrate; pH 7.4, catalytic domain).
For `COP(=O)(OC)Oc1ccc([N+](=O)[O-])cc1Cl`, the IC50 was 0.066 µM (carboxylesterase (rat); enzyme activity, inhibitor; rat, postnatal day 70, rat liver homogenate; added: p-nitrophenyl valerate).
`CC[C@H](C)[C@@H]1NC(=O)[C@H](CCC(=O)O)NC(=O)[C@@H]2CCCN2C(=O)[C@H](Cc2c[nH]cn2)NC(=O)[C@H](CCCNC(=N)N)NC(=O)[C@H](C(C)C)NC(=O)[C@H](CC(N)=O)NC(=O)[C@@H]2CSSC[C@H](NC(=O)CN)C(=O)N[C@@H](CSSC[C@@H](C(N)=O)NC1=O)C(=O)N[C@@H](CO)C(=O)N[C@@H](Cc1c[nH]cn1)C(=O)N1CCC[C@H]1C(=O)N[C@@H](C(C)C)C(=O)N2` gave an IC50 of over 10 µM (Nicotinic acetylcholine receptor alpha9/alpha10 (Rattus norvegicus, UniProt P43144+Q9JLB5); ion current, antagonist, two-electrode voltage clamp; Xenopus oocytes; rat, added: ACh 100 µM).
`CC[C@H](C)[C@H](NC(=O)[C@H](CCCNC(=N)N)NC(=O)[C@@H](NC(=O)[C@H](Cc1c[nH]cn1)NC(=O)c1ccccc1N)C(C)C)C(=O)N[C@@H](CO)C(=O)N[C@@H](CCCNC(=N)N)C(=O)N[C@@H](CO)C(=O)N[C@@H](CC(C)C)C(=O)N1CCC[C@H]1C(=O)N[C@@H](CCC(N)=O)C(=O)N[C@@H](CCC(N)=O)C(=O)NCCNc1ccc([N+](=O)[O-])cc1[N+](=O)[O-]` gave a kcat of 3.6 s⁻¹ (FURIN; substrate; pH 7).
The kcat of `CC(=O)N[C@@H](C)C(=O)N[C@@H](C)C(=O)N[C@@H](Cc1ccc(OP(=O)(O)O)cc1)C(=O)N[C@@H](C)C(=O)N[C@@H](C)C(=O)N[C@@H](C)C(=O)N[C@@H](CC(=O)O)C(=O)N[C@@H](CC(=O)O)C(N)=O` is reported as 29 ± 1 s⁻¹ (PTPN1; substrate; pH 7.4, catalytic domain).
For `CC(C)C[C@H](NC(=O)[C@H](Cc1ccccc1)NC(=O)CNC(=O)CNC(=O)[C@@H](N)Cc1ccc(O)cc1)C(=O)O`, the kcat was 12.9 s⁻¹ (Puromycin-sensitive aminopeptidase (Rattus norvegicus, UniProt F1M9V7); substrate; rat enzyme, MW 100 kDa).

A few entries again:
`C[C@@H](O)[C@H](NC(=O)[C@H](CO)NC(=O)[C@H](CCCNC(=N)N)NC(=O)[C@H](CCCCN)NC(=O)[C@@H](NC(=O)[C@H](CCCNC(=N)N)NC(=O)[C@H](CC(N)=O)NC(=O)[C@H](Cc1c[nH]cn1)NC(=O)c1ccccc1N)[C@@H](C)O)C(=O)N[C@@H](CC(=O)O)C(=O)NCC(=O)N[C@@H](CCC(N)=O)C(=O)NCCNc1ccc([N+](=O)[O-])cc1[N+](=O)[O-]` has a kcat of 7.6 s⁻¹ (FURIN; substrate; pH 7).
For `C[C@H](NC(=O)[C@H](C)NC(=O)[C@H](Cc1ccc(OP(=O)(O)O)cc1)NC(=O)[C@H](Cc1ccccc1)NC(=O)[C@H](CCC(=O)O)NC(=O)[C@H](Cc1cc(F)c(O)c(F)c1)NC(=O)[C@H](CCC(=O)O)NC(=O)[C@@H](N)CCCNC(=N)N)C(N)=O`, the kcat was 44 ± 2 s⁻¹ (PTPN1; enzyme activity, substrate; pH 7.4).
For `CCCC[C@H](NC(=O)[C@H](Cc1ccccc1)NC(C)=O)C(=O)NCC(=O)N[C@@H](C)C(=O)N[C@@H](Cc1cc(=O)oc2cc(OP(=O)(O)O)ccc12)C(=O)N[C@@H](CCC(N)=O)C(=O)N[C@@H](CC(C)C)C(=O)N[C@@H](CCC(=O)O)C(=O)N[C@@H](CCC(=O)O)C(N)=O`, the kcat was 160 ± 30 s⁻¹ (Tyrosine-protein phosphatase non-receptor type 2 (PTPN2, Homo sapiens, UniProt P17706); peptide hydrolysis, substrate).
